Assay results pooled from the literature.
Lines come from different studies, so protocols differ. ± gives the spread as reported.

Structure (SMILES)	tested on	assay	system	setting	how to read	quantity	value
CC(=O)N[C@@H](CC(N)=O)C(=O)NCC(=O)N[C@@H](C)C(=O)N[C@@H](C)C(N)=O	Asn-Gly peptide isomerisation to succinimide	1H NMR time course	–	pH 7.4, 46 °C	–	rate constant k1	0.0498 h⁻¹
O=C(c1ccc2ccccc2c1)c1cn(-c2ccccc2)nc1C1=Nn2c(Cc3nnc4n3N=C(c3nn(-c5ccccc5)cc3C(=O)c3ccc5ccccc5c3)CS4)nnc2SC1	MCF7 cells	flow cytometry	–	IC50, 48 h	–	S-phase cells	39.2%
Cn1c(=O)oc2ccc(-c3ccc(CC(C#N)NC(=O)C4CNCCCO4)c(F)c3)cc21 (centres unmarked)	–	–	human, plasma	40 mg, single dose, fasted, mean	–	half-life	21 h
COc1cc(CNC(=O)C[C@H](C)CCC=C(C)C)ccc1OCc1cn(-c2ccccc2F)nn1	MCF7 breast cancer cells	SRB	–	10 µM, 48 h	–	growth percent	66.9%
O=Cc1c(O)ccc2ccccc12	HUVEC	RNA sequencing, measured: ARRDC4	–	75 µM, 24 h	relative to: DMSO	log2 fold change	3.23
O=C1Nc2ccc(F)cc2C1=Cc1c(Cl)[nH]c2c1ccc1ccccc12	ovarian cancer subpanel of NCI-60	–	–	48 h	–	TGI	7.41 µM
CC(C)(C)CCN1C[C@@H]2[C@@H](CNC(=O)c3cc(Cl)cc(Cl)c3)[C@@H]2C1	human sperm	–	–	4 h, added: 100 nM progesterone or PGE1	–	concentration abolishing hyperactivated motility	30 µM
O=S(=O)(CCC(F)(F)F)Nc1ccc(Oc2ncccc2-c2ccnc(N[C@H]3CCCNC3)n2)c2ccccc12	INS1 cells with Dox-inducible IRE1α	IRE1α-induced decrease, RNA-Seq	–	20 µM, added: 5 ng/mL doxycycline	–	secretome transcript level	inhibited
Cc1nn(C)c(O)c1-c1nc2cc(Cl)c(Cl)cc2[nH]c1=O	TF-1	annexin V	–	IC75, 24 h	–	apoptotic cells	~30%
COc1cc(CNC(=O)C[C@H](C)CCC=C(C)C)ccc1OCc1cn(-c2ccc([N+](=O)[O-])cc2)nn1	MCF7 breast cancer cells	SRB	–	10 µM, 48 h	–	growth percent	64%
C=C1C(=O)OC2C1CCC1(C)CC1CCC1(C)OC21 (centres unmarked)	TEX	CellROX Green flow cytometry	–	25 µM, 30 min	relative to: untreated	ROS level	1.6 fold
Cc1cc(C)c2sc(NC(=O)C3CCN(S(=O)(=O)c4ccc(F)cc4)CC3)nc2c1	Napepld knockout BMDM	flow cytometry	–	10 µM, 6 h	–	efferocytosis	no effect
CC/C=C\C/C=C\C/C=C\C/C=C\C/C=C\C/C=C\CCC(=O)Nc1ccn(C2OC(CO)C(O)C2(F)F)c(=O)n1 (centres unmarked)	SR	cell growth or viability, SRB	–	–	–	GI50	0.0141 µM
CC(=O)NC1C(O)OC(CO)C(O)C1OC(C)C(=O)NC(C)C(=O)NC(CCC(=O)O)C(N)=O (centres unmarked)	human PBMCs	–	–	10 µM, 24 h, with or without LPS	–	IL-1β secretion	increased
COc1cc(CNC(=O)C[C@H](C)CCC=C(C)C)ccc1OCc1cn(-c2ccccc2Cl)nn1	786-0	SRB	–	10 µM, 48 h	–	growth	87.7%
CC(=O)N[C@H](C(=O)N[C@H](C(=O)N[C@@H](CCCNC(=N)N)C(=O)N1Cc2ccccc2C[C@H]1C(=O)N[C@@H](Cc1ccccc1)C(N)=O)C1CCCCC1)C(C)C	MBP-specific BC-3 T cells	Bio-Plex multiplex, measured: IL-17	–	200 µg/mL, 24 h, added: MBP87-99 antigen	–	cytokine level	11 ± 1.2 pg/mL
CC(C)c1cccc(C(C)C)c1N1CCN(c2c(C(C)C)cccc2C(C)C)C1=[Se].[Cl][Au]	LoVo MDR	MTT	–	–	relative to: LoVo MDR over LoVo	resistance factor	1
COc1ccc([C@@H]2CC(=O)c3c(O)cc(O[C@@H]4O[C@H](CO[C@@H]5O[C@@H](C)[C@H](O)[C@@H](O)[C@H]5O)[C@@H](O)[C@H](O)[C@H]4O)cc3O2)cc1O	A549	trypan blue exclusion	–	100 µg/mL, 48 h	–	cell count	13300 ± 630
CCN1CCN(Cc2ccc(C(=O)Nc3ccc(C)c(NCc4cnc5[nH]ccc5c4OC)c3)cc2C(F)(F)F)CC1	SW480, overexpressing wild type	cell proliferation	–	48 h	–	GI50	2.76 µM
O=C(NCC1(c2nc(-c3ccccc3)cs2)CCOCC1)c1cccc(-c2noc(C(F)(F)F)n2)c1	DHL6	RNA sequencing	–	3 µM, 12 h	–	upregulated genes	210 genes
O=C(N1CCCC1)n1cc(-c2ccc(-c3ccccc3)cc2)nn1	mouse T-cells	N-terminal labeled proteins, N-terminal enrichment proteomics, measured: PAIP2	–	1 nM, 6 h	relative to: DMSO	SILAC ratio	1.06 ± 0.14
CC(C)=CCc1c(-c2cc(O)c(O)cc2O)oc2c(CC=C(C)C)c(O)cc(O)c2c1=O	SAS	cell growth, MTT	–	–	relative to: IC50 HaCaT over IC50 SAS	selectivity ratio	1.8
C1=[N+]2CCCC[N+]3=Cc4ccc5[n]4[Au-]23[n]2c1ccc2-c1nc2ccccc2nc1-5.F[P-](F)(F)(F)(F)F	prostate cancer cell lines	–	–	NCI60 panel mean	–	GI50	7 µM
COc1cc(CNC(=O)C[C@H](C)CCC=C(C)C)ccc1OCc1cn(-c2cccc([N+](=O)[O-])c2)nn1	IGROV-1 ovarian cancer cells	SRB	–	10 µM, 48 h	–	growth percent	107%
Cc1ccc2nc(-c3ccc(Cl)cc3)c(CN3CCN(c4ccc(F)cc4)CC3)n2c1	CRL8155	cell growth or viability	–	48 h	–	EC50	> 50 µM
O=C(/C=C(O)/C=C/c1cccs1)/C=C/c1cccs1	EA.hy926	DCFH-DA, normalised to SRB	–	10 µM	relative to: untreated	intracellular ROS	105 ± 8%
CCC/C(=C\C1=C(OC)C(=O)c2ccccc2C1=O)C(=O)NOC	NF90-8 cells	HIF1α reporter gene, luciferase reporter	–	24 h, 1% oxygen hypoxia	–	EC50	8.1 ± 0.53 µM

Structure (SMILES)	tested on	assay	system	setting	how to read	quantity	value
CCCCCCCCCCCCCCCC(=O)O[C@H]1[C@H](C)O[C@@H](O[C@H]2[C@H](N(C)C)[C@@H](O)[C@H](O[C@H]3[C@@H](CC=O)C[C@@H](C)[C@@H](O[C@H]4CC[C@H](N(C)C)[C@@H](C)O4)/C=C/C=C/C[C@@H](C)OC(=O)C[C@@H](O)[C@@H]3OC)O[C@@H]2C)C[C@@]1(C)O	GES-1 and HGC-27	cell growth, CCK-8	–	72 h	relative to: IC50 GES-1 over HGC-27	selectivity index	2.58
C(=C/c1ccccc1)/c1ccccc1	MOLT-3	cell proliferation, CellTiter-Glo	–	24 h, lowest dose with significant inhibition	relative to: vehicle	lowest effective concentration	2 µM
COc1ccc([C@@H]2CC(=O)c3c(O)cc(O[C@@H]4O[C@H](CO[C@@H]5O[C@@H](C)[C@H](O)[C@@H](O)[C@H]5O)[C@@H](O[C@H]5O[C@H](CO)[C@@H](O)[C@H](O)[C@H]5O)[C@H](O)[C@H]4O)cc3O2)cc1O	A549	cell growth or viability, MTS	–	150 µg/mL, 24 h	–	viability	31.9%
CO[C@@H]1[C@@H](O[C@@H]2O[C@H](C)[C@@H](O[C@H]3C[C@@](C)(O)[C@@H](OC(=O)C4CCCCC4)[C@H](C)O3)[C@H](N(C)C)[C@H]2O)[C@@H](CC=O)C[C@@H](C)[C@@H](O[C@H]2CC[C@H](N(C)C)[C@@H](C)O2)/C=C/C=C/C[C@@H](C)OC(=O)C[C@H]1O	GES-1 and HGC-27	cell growth, CCK-8	–	72 h	relative to: IC50 GES-1 over HGC-27	selectivity index	3.4
COc1cc(CNC(=O)C[C@H](C)CCC=C(C)C)ccc1OCc1cn(-c2ccc(Br)cc2)nn1	MOLT-4 leukaemia cells	SRB	–	10 µM, 48 h	–	growth percent	70%
CN(C)c1cc2ccccc2c(N)n1	LX-2	qPCR	–	concentration not given, 6 h pre-treatment, added: TGF-β1 5 ng/mL for 12 h	–	ACTA2 mRNA level	decreased
CC1=CC(C)=[N+]2C1=C(CO)c1c(C)cc(C)n1[B-]2(F)F	RPE-1	resazurin	–	0.1667 h, added: 510 nm light, 10 min	relative to: dark over light IC50	phototoxicity index	20 ± 5
Cc1nn(-c2ccc(S(=O)(=O)N[C@H](CO)CC(C)C)cc2)c2nn3nnnc3nc12	HT-29	MitoTracker Red	–	2 µM, 24 h	relative to: untreated	mitochondrial membrane potential	78.8 ± 3.32%
CO[C@@H]1[C@@H](O[C@@H]2O[C@H](C)[C@@H](O[C@H]3C[C@@](C)(O)[C@@H](OC(=O)c4ccc(C(C)(C)C)cc4)[C@H](C)O3)[C@H](N(C)C)[C@H]2O)[C@@H](CC=O)C[C@@H](C)[C@@H](O[C@H]2CC[C@H](N(C)C)[C@@H](C)O2)/C=C/C=C/C[C@@H](C)OC(=O)C[C@H]1O	GES-1 and HGC-27	cell growth, CCK-8	–	72 h	relative to: IC50 GES-1 over HGC-27	selectivity index	1.44
CC(C)C[C@@H](OC(=O)[C@@H](NC(=O)[C@@H](C)O)C(C)C)C(=O)N[C@@H](C(=O)OC(C)(C)C)C(C)C	P388	cell growth	DMSO	–	–	ED50	> 10 µg/mL
COc1cc(CNC(=O)C[C@H](C)CCC=C(C)C)ccc1O	MDA-MB-231/ATCC	SRB	–	10 µM, 48 h	–	growth	79.6%
CC(=O)c1c(C)c2cnc(Nc3ccc(N4CCNCC4)cn3)nc2n(C2CCCC2)c1=O	CHO cells	Western blot	–	concentration not given	–	S6 phosphorylation	no effect
C=CC(=O)Oc1ccc(Cl)cc1C(=O)Nc1ccc([N+](=O)[O-])cc1Cl	PC-3 (AR-negative)	–	–	concentration not given, 3 days, dose-dependent	–	cell growth	decreased
CCCCCCCCCC[N]1C(=O)c2cccc[n+]2[Ir]1[Cl].Cc1c(C)c(C)[c-](C)c1C	SH-SY5Y	SRB	–	concentration not given, added: 4-hydroxynonenal 150 µM	relative to: 4-hydroxynonenal alone	cell viability	1.2 fold
COc1ccc(NC(=O)COc2ccc(/C=C/C(C)=N/O)cc2OC)cc1	SH-SY5Y	flow cytometry	–	5 µM, added: amyloid beta 10 µM	–	IL-1β expressing cells	45%
NS(=O)(=O)Nc1ncnc(OCCOc2ncc(Br)cn2)c1-c1ccc(Br)cc1	–	M6 formation	female Sprague-Dawley rat, liver microsomes	150 mg/kg daily for 4 weeks	–	Km	1.7 ± 0.8 µM
CCN1/C(=C/C=C2\CCCC(/C=C/C3=[N+](CC)c4ccccc4C3(C)C)=C2NCCCCCCCCN2CCC(Nc3nc4ccccc4n3Cc3ccc(F)cc3)CC2)C(C)(C)c2ccccc21	U87	western blot, measured: ATF4	–	3 µM, 24 h	–	protein level	increased
Cc1cc(-c2ccc(NC(=O)[C@H](CCCCNC(=O)CCOCCOCCC(=O)N[C@H](Cc3ccccc3)C(=O)N[C@H]3CSSC[C@@H](C(=O)N[C@H](C(=O)O)[C@@H](C)O)NC(=O)[C@H]([C@@H](C)O)NC(=O)[C@H](CCCCN)NC(=O)[C@@H](Cc4c[nH]c5ccccc45)NC(=O)[C@H](Cc4ccc(O)cc4)NC3=O)NC(=O)CN3CCN(CC(=O)O)CCN(CC(=O)O)CCN(CC(=O)O)CC3)c(C)c2)ccc1N=Nc1ccc2c(S(=O)(=O)O)cc(S(=O)(=O)O)c(N)c2c1O [lutetium-177 labelled]	–	–	metastatic NET patients, lymph node metastases	–	–	residence time	0.6 ± 0.18 h
COc1ccc2c(c1)/C(=N\Nc1nnc3n1N=C(c1ccccc1)CS3)C(=O)N2	SR	cell growth or viability, SRB	–	10 µM	–	inhibition	64%
C=C(CC)C(=O)c1ccc(OCC(=O)NCCNC(=O)COc2ccc(C(=O)C(=C)CC)c(Cl)c2Cl)c(Cl)c1Cl	HEK293	cell growth, CCK-8	–	72 h	–	IC10	~1.2 µM
COc1ccc(-c2cc(C(F)(F)F)nc(SCC(=O)N(C)c3ccccc3)n2)cc1	NG108-15	measured: cAMP	–	25 µM, added: secretin(3-27)	–	efficacy	20%
COc1cc(CNC(=O)C[C@H](C)CCC=C(C)C)ccc1OCc1cn(-c2ccccc2[N+](=O)[O-])nn1	IGROV-1 ovarian cancer cells	SRB	–	10 µM, 48 h	–	growth percent	78.9%
FC(F)(F)c1ccnc(-c2cc(C(F)(F)F)ccn2)c1.FC(F)(F)c1ccnc(-c2cc(C(F)(F)F)ccn2)c1.[Cl-].[Cl-].[Ru+2].c1csc(-c2ccc(-c3ccc(-c4nc5c6cccnc6c6ncccc6c5[nH]4)s3)s2)c1	SK-MEL-28	cell viability	–	hypoxia 1% O2, added: visible light	relative to: dark EC50 over light EC50	mean phototherapeutic index	300
COc1ccc(CC2COC(=O)C2Cc2ccc3c(c2)OCO3)cc1OC (mixture of isomers)	A2780cis	western blot, measured: Bax	–	IC50, 48 h	relative to: 0 h	protein level	increased
COc1cc(CNC(=O)C[C@H](C)CCC=C(C)C)ccc1OCc1cn(-c2ccc(C#N)cc2)nn1	MOLT-4 leukaemia cells	SRB	–	10 µM, 48 h	–	growth percent	14.8%
CC(Cc1ccc(Cl)cc1)=C(c1ccc(Cl)cc1)c1ccc(OCCN(C)C)cc1	OVCAR-8	cell growth or viability	–	–	–	GI50	5.75 µM

Repeated from above:
Structure (SMILES)	tested on	assay	system	setting	how to read	quantity	value
COc1cc(CNC(=O)C[C@H](C)CCC=C(C)C)ccc1OCc1cn(-c2ccccc2[N+](=O)[O-])nn1	IGROV-1 ovarian cancer cells	SRB	–	10 µM, 48 h	–	growth percent	78.9%
FC(F)(F)c1ccnc(-c2cc(C(F)(F)F)ccn2)c1.FC(F)(F)c1ccnc(-c2cc(C(F)(F)F)ccn2)c1.[Cl-].[Cl-].[Ru+2].c1csc(-c2ccc(-c3ccc(-c4nc5c6cccnc6c6ncccc6c5[nH]4)s3)s2)c1	SK-MEL-28	cell viability	–	hypoxia 1% O2, added: visible light	relative to: dark EC50 over light EC50	mean phototherapeutic index	300
COc1ccc(CC2COC(=O)C2Cc2ccc3c(c2)OCO3)cc1OC (mixture of isomers)	A2780cis	western blot, measured: Bax	–	IC50, 48 h	relative to: 0 h	protein level	increased
